Assay results pooled from the literature.
Each line is one published result; not all experiments were run side by side. ± marks the error that the study gave.
Cell line: PC-3

SMILES	test	setting	how to read	quantity	value
COc1cc(CNC(=O)C[C@H](C)CCC=C(C)C)ccc1OCc1cn(-c2ccccc2Cl)nn1	SRB	10 µM, 48 h	–	growth percent	49.4%
Cc1nn(-c2ccc(S(=O)(=O)N[C@H](CO)CC(C)C)cc2)c2nn3nnnc3nc12	MitoTracker Red	2 µM, 24 h	baseline: untreated	mitochondrial membrane potential	58 ± 0.58%
COc1cc(CNC(=O)C[C@H](C)CCC=C(C)C)ccc1OCc1cn(-c2ccc(C#N)cc2)nn1	SRB	10 µM, 48 h	–	growth percent	68.2%
COC(C(=NOCc1ccccc1)C(O)C(C)O)C1Cc2cc3cc(OC4CC(OC5CC(O)C(O)C(C)O5)C(O)C(C)O4)c(C)c(O)c3c(O)c2C(=O)C1OC1CC(OC2CC(OC3CC(C)(O)C(O)C(C)O3)C(O)C(C)O2)C(O)C(C)O1 (centres unmarked)	cell growth or viability	72 h	–	GI50	0.12 µM
C=C1CC(OC(=O)C(C)(O)CCl)C2C(=C)C(=O)OC2C2C1CC(O)C2(O)CCl (centres unmarked)	annexin V-FITC/PI	concentration not given, 48 h	–	apoptotic cells	91.5%
CCC(=C(c1ccc(Cl)cc1)c1ccc(OCCCN(C)C)cc1)c1ccc(OC)cc1	cell growth or viability	–	–	GI50	1.12 µM
COC(C(=NOCC(=O)Nc1cccnc1)C(O)C(C)O)C1Cc2cc3cc(OC4CC(OC5CC(O)C(O)C(C)O5)C(O)C(C)O4)c(C)c(O)c3c(O)c2C(=O)C1OC1CC(OC2CC(OC3CC(C)(O)C(O)C(C)O3)C(O)C(C)O2)C(O)C(C)O1 (centres unmarked)	cell growth or viability	72 h	–	GI50	0.185 µM
COc1cc(CNC(=O)C[C@H](C)CCC=C(C)C)ccc1OCc1cn(-c2ccccc2[N+](=O)[O-])nn1	SRB	10 µM, 48 h	–	growth percent	48.1%
CC1(CO)C(O)CCC2(C)C(C=CC3=CCOC3=O)C(CO)=CCC12 (centres unmarked)	cell growth or viability, MTT	20 µM, 48 h	–	inhibition	0%
COC(C(=NOCC(=O)NCCc1ccccc1)C(O)C(C)O)C1Cc2cc3cc(OC4CC(OC5CC(O)C(O)C(C)O5)C(O)C(C)O4)c(C)c(O)c3c(O)c2C(=O)C1OC1CC(OC2CC(OC3CC(C)(O)C(O)C(C)O3)C(O)C(C)O2)C(O)C(C)O1 (centres unmarked)	cell growth or viability	72 h	–	GI50	0.58 µM
CCCCCCCCCCCCCCCCCC(=O)N=C(N)NCCC[C@H](NC(=O)[C@H](CC(C)C)NC(=O)[C@@H](CC(C)C)NC(=O)[C@H](Cc1ccc(O)cc1)NC(=O)[C@H](CO)NC(=O)[C@H](Cc1c[nH]c2ccccc12)NC(=O)[C@H](Cc1c[nH]cn1)NC(=O)[C@@H]1CCC(=O)N1)C(=O)N1CCC[C@H]1C(=O)NCC	WST-1	50 µM, 4 days, 2D monolayer, daily dosing	baseline: control	cell proliferation	98.9%
CSc1ccc(/C=C2/C(C)=C(CC(=O)NCCN(C)C)c3cc(F)ccc32)cc1	cell growth or viability	–	–	CC50	3.12 µM
CC(C)C[C@H](NC(=O)C[C@H](O)[C@H](CC(C)C)NC(=O)[C@H](Cc1c[nH]cn1)NC(=O)CNC(=O)[C@@H](NC(=O)[C@H](C)NC(=O)[C@H](Cc1c[nH]c2ccccc12)NC(=O)[C@H](CCC(N)=O)NC(=O)[C@@H](Cc1ccccc1)NC(=O)CCOCCOCCOCCNC(=O)CN1CCN(CC(=O)O)CCN(CC(=O)O)CC1)C(C)C)C(N)=O [gallium-68 labelled]	acid wash	1 h, 37 °C	baseline: total uptake	internalized fraction	< 15%
CCCC(CCC)C(=O)NCCNC(=O)[C@]1(C)[C@@H]2CC[C@]3(C)[C@H](C(=O)C=C4[C@@H]5[C@@H](C)[C@H](C)CC[C@]5(C)CC[C@]43C)[C@@]2(C)CC[C@H]1OC(C)=O	cell growth or viability, MTT	48 h	–	IC50	> 30 µM
Cc1ccc(C(C)C)cc1.O=C([N-]c1nc2ccccc2s1)c1cnccn1.[Cl-].[Ru+2]	cytotoxicity, MTT	–	baseline: KMST-6 over PC-3	selectivity index	> 2
CC/C=C\C/C=C\C/C=C\C/C=C\C/C=C\C/C=C\CCC(=O)Nc1ccn(C2OC(CO)C(O)C2(F)F)c(=O)n1 (centres unmarked)	NCI60 screen	–	–	TGI	27 µM

SMILES	test	setting	how to read	quantity	value
COC(C(=NOCC(=O)Nc1ccncc1)C(O)C(C)O)C1Cc2cc3cc(OC4CC(OC5CC(O)C(O)C(C)O5)C(O)C(C)O4)c(C)c(O)c3c(O)c2C(=O)C1OC1CC(OC2CC(OC3CC(C)(O)C(O)C(C)O3)C(O)C(C)O2)C(O)C(C)O1 (centres unmarked)	cell growth or viability	72 h	–	GI50	0.201 µM
CC(=O)OC[C@H]1O[C@@H](Sc2sc(C(=O)c3ccc(C)cc3)c(N)c2-c2nc3ccccc3s2)[C@H](OC(C)=O)[C@@H](OC(C)=O)[C@H]1OC(C)=O	SRB	10 µM, 48 h	baseline: untreated	growth	60.6%
CON=C(C(O)C(C)O)C(OC)C1Cc2cc3cc(OC4CC(OC5CC(O)C(O)C(C)O5)C(O)C(C)O4)c(C)c(O)c3c(O)c2C(=O)C1OC1CC(OC2CC(OC3CC(C)(O)C(O)C(C)O3)C(O)C(C)O2)C(O)C(C)O1 (centres unmarked)	cell growth or viability	72 h	–	GI50	0.226 µM
COc1cc(/C=C/C(=O)/C=C(O)/C=C/c2ccc(OCC(=O)N3CCOCCOCCOCCOCCOCC3)c(OC)c2)ccc1OCC(=O)N1CCOCCOCCOCCOCCOCC1	cell growth or viability, SRB	5 µM	–	inhibition	4.14%
O=C(O)CCC(NP(=O)(O)OCCC[C@@H](NC(=O)CC[C@H](NC(=O)CCCCCNC(=O)c1ccc([18F])cc1)C(=O)O)C(=O)O)C(=O)O (some centres unmarked)	–	concentration not given, 1 h	–	cell uptake	0.04 ± 0.01%
CC(=O)O[C@@H]1CC[C@@]2(C)[C@@H](CC[C@]3(C)[C@@H]2C(=O)C=C2[C@@H]4[C@@H](C)[C@H](C)CC[C@]4(C)CC[C@]23C)[C@@]1(C)C(=O)NCCNC(=O)CCCCC[P+](c1ccccc1)(c1ccccc1)c1ccccc1	cell growth or viability, MTT	48 h	–	IC50	21.5 µM
CC(Cc1ccc(Cl)cc1)=C(c1ccc(Cl)cc1)c1ccc(OCCN(C)C)cc1	cell growth or viability	–	–	GI50	4.34 µM
COc1cc(/C=C/C(=O)/C=C(O)/C=C/c2ccc(OCC(=O)N3CCOCCOCCOCCOCC3)c(OC)c2)ccc1OCC(=O)N1CCOCCOCCOCCOCC1	cell growth or viability, SRB	5 µM	–	inhibition	11.4%
CCCCCCCCCCCC1N=C(N)N=C(N)N1c1ccc(Cl)cc1.Cl (racemic)	–	concentration not given	–	growth inhibition	≤ 100%
COC(C(=NOCC(=O)Nc1ccccc1)C(O)C(C)O)C1Cc2cc3cc(OC4CC(OC5CC(O)C(O)C(C)O5)C(O)C(C)O4)c(C)c(O)c3c(O)c2C(=O)C1OC1CC(OC2CC(OC3CC(C)(O)C(O)C(C)O3)C(O)C(C)O2)C(O)C(C)O1 (centres unmarked)	cell growth or viability	72 h	–	GI50	0.055 µM
COc1cc(CNC(=O)C[C@H](C)CCC=C(C)C)ccc1OCc1cn(-c2ccc(F)cc2)nn1	SRB	10 µM, 48 h	–	growth percent	80.2%
CN(C)c1cccc2c(S(=O)(=O)NCCCCCC(=O)NO)cccc12	Western blot	concentration not given	–	alpha-tubulin acetylation	increased
CC(=O)OC[C@H]1O[C@@H](Sc2sc(C(=O)c3ccc(Br)cc3)c(N)c2-c2nc3ccccc3s2)[C@H](OC(C)=O)[C@@H](OC(C)=O)[C@H]1OC(C)=O	SRB	10 µM, 48 h	baseline: untreated	growth	70.8%
N=C(N)NCCC[C@@H]1NC(=O)[C@H](CCCCN)NC(=O)[C@@H](Cc2ccc(O)cc2)NC(=O)[C@H](CC(=O)O)NC(=O)CNC1=O	cell growth or viability, MTT	–	–	GI50	74.4 µM
COc1cc(CNC(=O)C[C@H](C)CCC=C(C)C)ccc1O	SRB	10 µM, 48 h	–	growth percent	83.2%
C[N+]1(CC(=O)OC2CCCCCCCCCCC2)CCCCC1	cell viability, CellTiter Blue	96 h	–	ED90	38.6 µM

For quick reference, copied from above:
SMILES	test	setting	how to read	quantity	value
CC/C=C\C/C=C\C/C=C\C/C=C\C/C=C\C/C=C\CCC(=O)Nc1ccn(C2OC(CO)C(O)C2(F)F)c(=O)n1 (centres unmarked)	NCI60 screen	–	–	TGI	27 µM
N=C(N)NCCC[C@@H]1NC(=O)[C@H](CCCCN)NC(=O)[C@@H](Cc2ccc(O)cc2)NC(=O)[C@H](CC(=O)O)NC(=O)CNC1=O	cell growth or viability, MTT	–	–	GI50	74.4 µM
CC(Cc1ccc(Cl)cc1)=C(c1ccc(Cl)cc1)c1ccc(OCCN(C)C)cc1	cell growth or viability	–	–	GI50	4.34 µM
COc1cc(/C=C/C(=O)/C=C(O)/C=C/c2ccc(OCC(=O)N3CCOCCOCCOCCOCCOCC3)c(OC)c2)ccc1OCC(=O)N1CCOCCOCCOCCOCCOCC1	cell growth or viability, SRB	5 µM	–	inhibition	4.14%
COC(C(=NOCC(=O)Nc1cccnc1)C(O)C(C)O)C1Cc2cc3cc(OC4CC(OC5CC(O)C(O)C(C)O5)C(O)C(C)O4)c(C)c(O)c3c(O)c2C(=O)C1OC1CC(OC2CC(OC3CC(C)(O)C(O)C(C)O3)C(O)C(C)O2)C(O)C(C)O1 (centres unmarked)	cell growth or viability	72 h	–	GI50	0.185 µM
